Experimental data gathered from unrelated publications.
Compare with care: the assays were run in different laboratories. ± marks the error that the study gave.
MET: Hepatocyte growth factor receptor (MET, Homo sapiens, UniProt P08581)
MET M1250T: Hepatocyte growth factor receptor (MET, Homo sapiens, UniProt P08581, M1250T)

Compound	target	assay	conditions	how to read	remaining activity
C=CC(=O)N1CCC([C@@H]2CCNc3c(C(N)=O)c(-c4ccc(Oc5ccccc5)cc4)nn32)CC1	MET	kinase activity, inhibitor, HotSpot radiometric	100 nM, together with: ATP 10 µM		66.2%
COc1cc(-c2cncc3c2CN(C)Cc2cc(N4CCNCC4)ccc2-3)cc(OC)c1OC	MET M1250T	kinase activity	1 µM, together with: ATP 10 µM	reference: DMSO control	86%
COc1cc(N2CCN(C)CC2)ccc1Nc1nc(N)n(C(=O)NCc2c(Cl)cccc2Cl)n1	MET	enzyme activity	10 µM	reference: control	7.6%
Cc1[nH]c(/C=C2\C(=O)Nc3ccc(F)cc32)c(C)c1C(=O)N[C@H]1CCN(C(=O)N(C)C)C1	MET	kinase activity, inhibitor	0.1 µM	reference: no-compound control	108%
COc1cc(N2CCN(C)CC2)ccc1Nc1nc(N)n(C(=S)NCc2c(Cl)cccc2Cl)n1	MET M1250T	enzyme activity	10 µM	reference: control	0%
COc1ccc(F)cc1C(=O)NCc1ccc(-c2nn([C@@H](C)C(F)(F)F)c(N)c2C(N)=O)cc1	MET		1000 nM, together with: ATP at Km		83.8 ± 6%
C1=C/COCc2cc(ccc2OCCN2CCCC2)Nc2nccc(n2)-c2cccc(c2)COC/1	MET M1250T		concentration not given	reference: untreated control	97%
CCCOc1ccc(OC)c(F)c1C(=O)c1ccc(C(=O)N[C@@H]2CNC[C@H]2NC(=O)c2ccc3[nH]ncc3c2)cc1	MET	enzyme activity	10 µM		53%
CCN(CC)c1ccc(C2=NNC(=O)CC2C)cc1[N+](=O)[O-] (stereo not shown)	MET	enzyme activity, inhibitor	10 µM	reference: vehicle	84%
COc1cc(N2CCN(C)CC2)ccc1Nc1nc(N)n(C(=O)NCc2ccccc2S(=O)(=O)C(C)C)n1	MET M1250T	enzyme activity	10 µM	reference: control	20%
COc1cc(F)ccc1-c1ncnc(Nc2cccc(C[S@](C)(=N)=O)c2)n1	MET	kinase activity	10 µM, together with: 10 µM ATP		91%
O=C(NC1CCC1)c1ccc2nc(-c3cccc(NS(=O)(=O)NCCN4CCCCC4)c3)cn2c1	Hepatocyte growth factor receptor (MET, Homo sapiens, UniProt P08581, Y1235D)	enzyme activity	10 µM		100%
c1cnc2ccc(Nc3nc(NC4CC4)c4nc[nH]c4n3)cc2c1	MET	kinase activity, inhibitor, SelectScreen kinase profiling	1 µM	reference: control	98%

A few entries again:
Compound	target	assay	conditions	how to read	remaining activity
COc1cc(N2CCN(C)CC2)ccc1Nc1nc(N)n(C(=O)NCc2ccccc2S(=O)(=O)C(C)C)n1	MET M1250T	enzyme activity	10 µM	reference: control	20%
